Measurements from different studies.
Protocols differ between the studies behind these lines. “And” joins repeats or separate records; there may be more than shown.
BRAF: Serine/threonine-protein kinase B-raf (BRAF, Homo sapiens, UniProt P15056)
Sequence of UniProt P15056 (whole entry, unmodified, looked up): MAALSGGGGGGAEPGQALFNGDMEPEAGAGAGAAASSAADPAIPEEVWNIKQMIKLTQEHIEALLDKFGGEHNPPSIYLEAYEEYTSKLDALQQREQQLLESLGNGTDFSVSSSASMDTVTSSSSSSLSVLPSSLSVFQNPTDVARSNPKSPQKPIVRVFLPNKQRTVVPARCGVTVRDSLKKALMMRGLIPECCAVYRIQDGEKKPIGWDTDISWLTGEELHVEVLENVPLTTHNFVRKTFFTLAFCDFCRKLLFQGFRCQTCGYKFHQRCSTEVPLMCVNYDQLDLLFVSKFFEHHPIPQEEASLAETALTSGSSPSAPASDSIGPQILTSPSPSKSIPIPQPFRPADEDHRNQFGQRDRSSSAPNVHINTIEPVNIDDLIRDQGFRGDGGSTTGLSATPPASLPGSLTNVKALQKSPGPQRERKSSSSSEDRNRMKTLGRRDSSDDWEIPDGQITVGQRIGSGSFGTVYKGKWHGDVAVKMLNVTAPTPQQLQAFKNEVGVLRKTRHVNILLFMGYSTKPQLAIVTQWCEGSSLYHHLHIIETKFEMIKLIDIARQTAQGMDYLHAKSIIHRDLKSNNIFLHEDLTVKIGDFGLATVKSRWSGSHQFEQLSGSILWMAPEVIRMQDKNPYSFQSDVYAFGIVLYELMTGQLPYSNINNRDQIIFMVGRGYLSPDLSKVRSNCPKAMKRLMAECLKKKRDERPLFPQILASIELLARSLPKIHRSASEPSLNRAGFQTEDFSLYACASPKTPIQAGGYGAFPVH
BRAF V600E: Serine/threonine-protein kinase B-raf (BRAF, Homo sapiens, UniProt P15056, V600E)

Structure (SMILES)	target	test	setting	measurement	result
[CH3][Ti+2][O]C(=O)c1ccc([S][Au][PH](c2ccccc2)(c2ccccc2)c2ccccc2)cc1.c1cc[cH-]c1.c1cc[cH-]c1	BRAF	kinase activity, HotSpot kinase	1 µM, together with: ATP 10 µM	remaining activity	102% and 101%
CN(C)[C@H]1C[C@@]23CC[C@@]4(O2)C(=CC[C@]2(C)[C@@H](c5ccc6ccncc6c5)CC[C@H]24)C=C3[C@@H](O)[C@@H]1O	BRAF	ATP probe labelling, inhibitor, KiNativ profiling	1 µM	inhibition	-7.7%
Nc1ccc(/C=C/C(=O)N2CCc3c(oc4c(-c5ccc(F)cc5)cc(-c5ccc(C(=O)N6CCC(F)(F)CC6)cn5)cc34)C2)cn1	BRAF V600E	binding, competition with immobilised ligand	1 µM	remaining binding	100%
C[C@H](NCc1ccc(-c2ccc(C(F)(F)F)cc2)cc1)C(N)=O	BRAF V600E	cell-free assay, competition with immobilised ligand	1 µM	inhibition	9%
CCOC(=O)[C@@H]1Cc2c(cc([N+](=O)[O-])cc2[N+](=O)[O-])[C@H](O)[C@]12C(=O)Nc1ccc(Br)cc12	BRAF	binding, competition with immobilised ligand	0.1 µM	remaining binding	88%
O=C(O)c1ccccc1/C=N/Nc1nc(-c2ccccc2Cl)cs1	BRAF V600E	enzyme activity, inhibitor	1 µM	inhibition	-7.11%
CS(C)(=O)=Nc1ccc(-c2ccc(-c3nc4cc(O[C@@H]5CO[C@H]6[C@@H]5OC[C@H]6O)[nH]c4cc3F)cc2)cc1	BRAF V600E	enzyme activity, inhibitor	10 µM	inhibition	1%
CC(C)[C@H]1NC(=O)C[C@H]2/C=C/CCSSC[C@@H](NC1=O)C(=O)N[C@H](Cc1cccc3ccccc13)C(=O)NCC(=O)O2	BRAF V600E	enzyme activity, inhibitor	10 µM	inhibition	7.1%

Excerpt of the above:
Structure (SMILES)	target	test	setting	measurement	result
[CH3][Ti+2][O]C(=O)c1ccc([S][Au][PH](c2ccccc2)(c2ccccc2)c2ccccc2)cc1.c1cc[cH-]c1.c1cc[cH-]c1	BRAF	kinase activity, HotSpot kinase	1 µM, together with: ATP 10 µM	remaining activity	102% and 101%
